# Measured values from different studies.
# Each line is one published result; not all experiments were run side by side. Numbers after ± are the reported error.
Compound,tested on,test,system,conditions,scale,quantity,result
Cc1cc(-c2nnc(N)nc2-c2ccc(F)cc2)cc(Cl)n1,,"item: obliterative bronchiolitis, all grades",male IO-naive mCRPC patients,"oral, dose not given",,"incidence of AE, immune-mediated, treatment-related",0%
O=C1c2cccc(O)c2C(=O)c2c(O)cc(CO)cc21,HK-2 co-cultured with HepaRG,MTT,,"66.67 µM, 24 h",relative to: untreated control,viability,135 ± 14.5%
CC=CC1CCC(C2CCC(CCC)CC2)CC1 (stereo not shown),,,"rat, fetus","1000 ng/mL in perfusate, middle dose, mixture of 21 LCMs",,fetal accumulation,0.664 ± 0.239 ng/g
COc1ccnc(C(=O)N[C@H]2COC(=O)[C@H](Cc3ccccc3)[C@@H](O)[C@H](C)OC2=O)c1O,,,"laying hens, female, fat","oral, 10.7 mg/kg dry feed, 7 days",,share of total radioactive residue,≤ 17 % TRR
CN(C(=O)n1cnc(-c2cccnc2)c1)C1CCCCC1,,,"Wistar rat, hippocampus","oral, 10 mg/kg of BIA 10-2474, 24 h, single dose",,concentration,9.7 ± 0.1 ng/g
C=CCN1CC(=O)N2[C@@H](Cc3ccc(O)cc3F)C(=O)N(Cc3cccc(N4CC(N5CCN(CC)CC5)C4)n3)C[C@@H]2N1C(=O)NCc1ccccc1,,item: Vomiting,advanced solid tumour patients,"all doses, dose-escalation part, grade ≥3",,treatment-related adverse events,0%
Cc1nn(CC(F)(F)F)cc1Nc1ncc(C2CC2)c(NCCc2c[nH]cn2)n1,,PAMPA,PBS,"5 h, pH 7.4",,effective permeability,3.89e-07 cm/s
C[C@@H]1COCCN1c1cc(C2([S@](C)(=N)=O)CC2)nc(-c2cc[nH]c3nccc2-3)n1,,,Japanese advanced solid tumour patients,"oral, 160 mg twice daily, any grade",,Pyelonephritis incidence,0%
O=C(O)CCC(=O)O.[2H]C([2H])([2H])Oc1cc(C)c2[nH]ccc2c1CN1CC[C@@H](C2CC2)C[C@H]1c1ccc(C(=O)O)cc1,,,healthy Chinese subjects,"400 mg, single ascending dose",,TEAE decreased fibrinogen,0%
Cl.[2H]C([2H])([2H])CC(=O)c1cnc(NC(=O)C2CC2)cc1Nc1cccc(-c2ncn(C([2H])([2H])[2H])n2)c1OC,,,"human, fasted, multiple dose","oral, 20 mg once daily, tablet, day 14, geometric mean",,terminal elimination rate constant,2.11e-05 s⁻¹
CCN1CCN(Cc2ccc(NC(=O)c3ccc(C)c(NC(=O)c4cncc(-c5cccs5)c4)c3)cc2C(F)(F)F)CC1,,,"C57BL/6 mice, epithelial lining fluid","intraperitoneal, 10 mg/kg",,mean residence time,2.92 h
CCc1cc(C(=O)NC)c2nccc(N3CCc4c(cc(Cn5ccnc5)cc4-c4cn(C)nc4C(F)(F)F)C3=O)c2c1,,,Sprague Dawley rat,"oral, 100 mg/kg twice daily, day 7, 7-day toxicology study",,body weight,243 ± 7 g
CC[C@H](C)[C@H](NC(=O)[C@H](CO)NC(=O)[C@H](CCCNC(=N)N)NC(C)=O)C(=O)N[C@H]1CSSC[C@@H](C(=O)N[C@H](C(N)=O)[C@@H](C)O)NC(=O)[C@H](CCCNC(=N)N)NC(=O)[C@H](Cc2c[nH]cn2)NC(=O)[C@H](C)NC(=O)CNC(=O)[C@H](Cc2c[nH]c3ccccc23)NC(=O)[C@H](CC(=O)O)NC(=O)[C@H](CCC(N)=O)NC(=O)[C@H](Cc2ccc(O)cc2)NC(=O)[C@H](C(C)C)NC1=O,,"isocratic RP-HPLC, C18","32% acetonitrile, phosphate pH 7.4, 1% TFA",25 °C,,retention factor,0.31 ± 0.03
O=C(N[C@H](Cc1c[nH]c2ccccc12)C(=O)Nc1ccncc1)c1ccc(-c2cc(C(F)(F)F)ccc2F)cc1F,,,"Swiss Webster mouse, female, fat","oral, 50 mg/kg, 8 h, 20% HPβCD vehicle",,concentration,650 nM
CO[C@@H]1[C@H](O)[C@@H](CO)O[C@H]1n1c([N+](=O)[O-])nc2c(=O)[nH]c(N)nc21,,,citrate phosphate buffer,"0.5 mM, pH 5.00, 37 °C",,depurination half-life,1580 min
Cc1cc(O)c2c(c1)C(=O)c1cc(O)cc(O)c1C2=O,HK-2 co-cultured with HepaRG,MTT,,"33.33 µM, 24 h",relative to: untreated control,viability,79.8 ± 8.87%
O=C(Nc1nc2cccc(-c3ccc(CN4CCS(=O)(=O)CC4)cc3)n2n1)C1CC1,,item: abdominal discomfort,rheumatoid arthritis patients,"oral, 75 mg once daily, 4 weeks, any relatedness",,patients with adverse event,0%
COc1ccc2c(c1)CN(C(=O)CCN1CCC(Cc3ccccc3)CC1)CC[S@@+]2[O-],,telemetry,conscious dog,"intravenous, 2 mg/kg, 4 h",,diastolic blood pressure,77 ± 7 mmHg
Cn1cc2cc1C(=O)NCCCC(=O)Nc1cn(C)c(n1)C(=O)Nc1cn(C)c(n1)C(=O)Nc1cc(n(C)c1)C(=O)Nc1cc(n(C)c1)C(=O)NC[C@H](N)CC(=O)Nc1cc(n(C)c1)C(=O)Nc1cc(n(C)c1)C(=O)Nc1cc(n(C)c1)C(=O)N2,,dynamic light scattering,0.1% DMSO in PBS,25 °C,,critical aggregation concentration,4 µM

# Repeated from above:
Compound,tested on,test,system,conditions,scale,quantity,result
CCN1CCN(Cc2ccc(NC(=O)c3ccc(C)c(NC(=O)c4cncc(-c5cccs5)c4)c3)cc2C(F)(F)F)CC1,,,"C57BL/6 mice, epithelial lining fluid","intraperitoneal, 10 mg/kg",,mean residence time,2.92 h
